Results pooled from the literature.
Each numbered part is a random draw from the data of one study; scales do not carry over between parts. Positions count from the first letter of the parent shown.

Block 1
Target: RING finger protein unkempt homolog, zinc fingers 1-6, GST-SBP tag (UNK, Homo sapiens, UniProt Q9C0B0, residues 30-357)
Sequence of UniProt Q9C0B0 (30-357, looked up): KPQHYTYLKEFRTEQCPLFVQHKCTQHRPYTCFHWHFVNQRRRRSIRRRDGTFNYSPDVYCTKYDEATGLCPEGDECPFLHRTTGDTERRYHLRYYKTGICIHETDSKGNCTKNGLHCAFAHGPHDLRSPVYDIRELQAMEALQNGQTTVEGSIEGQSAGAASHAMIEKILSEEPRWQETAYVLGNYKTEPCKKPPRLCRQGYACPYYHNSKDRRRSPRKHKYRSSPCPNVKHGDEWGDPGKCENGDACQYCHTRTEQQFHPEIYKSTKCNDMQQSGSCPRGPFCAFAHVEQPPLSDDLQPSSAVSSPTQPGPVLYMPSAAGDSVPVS
Method: RNA Bind-n-Seq
Molecule type: RNA
Matrix: in vitro
Concentration: not given
Setting: RNA with constant flanks, human and mouse sites, ends assumed
Baseline: input RNA pool
Reading: higher = stronger binding
All sequences stand within: GGGAGUUCUACAGUCCGACGAUC … CAACAGAGGAUUGAGCAUCA
| Strand | bound/input enrichment [ratio] |
| --- | --- |
| GGCAAAGGCAAAGGCGGCUCCGGAGAUUCGGCCGUGAAGCAGGUGCAGAUCGACGGCCUGGUAGUAUUAAAGAUAAUCAAACAUUAUCAAGAAGAAGGACAAGGCACUGAGGUUGUUCAG | 0.481 |
| GUAGGUCAGGACCCUGUCAUGAGACAGGUGGAAGGAAAAAACCCAGUCACAAUAUUUUCUCUAGCAACAAAUGAGAUGUGGCGAUCAGGGGAUAGUGAAGUAUACCAAAUGGGUGACGUU | 3.82 |
| AAUGACAUAAUCCUGUAUGCAAAAAUUGAAGGAAGAAAAGAGCAUAUAACACUGGAUACCCUUUCCUAUUCCUCAUAUAAGGUUCCGUCUUUGGUUUCUGUGGUCAUCAAUCCUGAACUU | 0.123 |
| CAUGCAGUUGUGGUCAAUAUUGUGGUAAUCGCUAAUUGUACUGAUUGUUUAAGUGUGCAUUAGUUGUGUCUCCCCAGCUAGAUUGUAAGCUCCUGGAGGACAGGGACCACCUCUACAAAA | 0.507 |
| UGGUGGGGACUGAGUUCCCUGUUCAAACCGUUAUUGGGUACAGGAUUGAAUGUUUGAUUUUAGGUUUUAUUUUUCUUAUGAAUGUCCAGAUCUGUGUUUCCCUGCCCUCCCAGACUCUGG | 27.8 |
| ACCUUGAUAUCCUCAGCCCAAAGGCGAUGCCCCCCUGCCACCUCCAAGCCUGGAAUUGUGCAUAACCCGGAUCUUGUAUCUUUGUAUAACGGAUGUUAUUUGUACGAAGGGCAGUUCGUA | 0.479 |
| GAUGGCACAGCUUCUGGAUCUAUCUGUUGAUGAGUCCGAAGCCUUUCUCUCAAAUCUAGUAGUUAACAAGACCAUCUUUGCUAAAGUAGACAGAUUAGCAGGAAUUAUCAACUUCCAGAG | 1.68 |
| CUUCGGAAUGCACUACAACAGGAAAAUCAUAUUAUAGAUGGAGUAAAGGUCCAGGUUCACACUAGAAGGCCAAAACUUCCGCAAACAUCUGAUGAUGAAAAGAAAGAUUUUUGAGACUGC | 0.218 |
| UGACUUUGCGUAGGCUUGCGGGUGUCCAGGCCGCCUAGGCUGGAGAGAAAGCCAGUAGAAAUAGAUAUGAUUGUAGGAAAAGACCGGGAAGGUUUCUUUACCAACGGUUUGACUCUUGGA | 3.33 |
| UUCUACUGCAUCUCAUCUGACACUCCACUGCCAGAUACAGAAAAAACAGAACUCACAGGUGUAAUAGUGAUUGAUAAAGACAAGACAGUUUUCAGUCAAGAUAUCAGAUAUCAGACUCCA | 0.284 |
| UUCAAAAAGAGAAGACUUGAAAAUGGAAAAUCUCGAAACUUAAGACAGCGAGGUGACGACGAGUGACUGUGAAGCUAUGGAUGGAAGGGGUGUCCUUUCCAAGCUGCUCUGUGCUCUGUG | 0.326 |

Block 2
Target: Histone acetyltransferase KAT6A, winged helix 1, GST fusion (KAT6A, Homo sapiens, UniProt Q92794, residues 1-85)
Method: protein binding microarray
Molecule type: double-stranded DNA, one strand shown
Matrix: in vitro
Concentration: not given
Setting: 8-mer, flanks averaged, mean of 2 arrays, mostly near background
Baseline: not given
Reading: higher = stronger binding
Residues (chain): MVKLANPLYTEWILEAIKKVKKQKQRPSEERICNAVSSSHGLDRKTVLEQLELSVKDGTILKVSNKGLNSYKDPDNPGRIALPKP
| Strand | E-score |
| --- | --- |
| CTTTCTTA | -0.0822 |
| ACTCAGCG | 0.0416 |
| AACTTGCT | -0.155 |
| GTCCGATA | 0.141 |
| AACACAAA | -0.284 |
| AAAGGCCC | 0.11 |
| CCTCTACA | -0.199 |
| GGCTACAC | 0.0281 |
| TCACCAAA | -0.101 |
| CTAACACC | -0.0994 |
| AAAGGTAA | -0.203 |
| ACTCGACT | -0.278 |
| AGCTTTGG | -0.235 |
| ATCGTACG | 0.137 |
| AGGTCACG | -0.035 |
| CTGCTCGC | 0.0443 |
| ATCACTAC | -0.22 |
| AAGAACAA | -0.152 |
| CGACTGTA | 0.0285 |

Block 3
Target: Sal-like protein 4, full length isoform B (SALL4, Homo sapiens, UniProt Q9UJQ4-2, residues 1-616)
Method: universal PBM
Molecule type: double-stranded DNA, one strand shown
Matrix: in vitro
Concentration: not given
Setting: 8-mer, flanks averaged, mean of replicates
Reading: higher = stronger binding
| Strand | E-score |
| --- | --- |
| CCTATGAG | 0.0913 |
| CGACCCAA | -0.0428 |
| ACCAGAGG | -0.163 |
| CGAGGCCG | -0.312 |
| AGGAAACA | 0.0168 |
| AGCATAAA | 0.293 |
| AAACGAGG | -0.163 |
| CGACAAAA | 0.175 |
| CCTGCTTA | -0.00325 |
| AGAAATAG | 0.24 |
| GGACTGTA | 0.0906 |
| GATGCTCC | -0.115 |
| CGAATTTC | 0.166 |
| CCCGTCGA | -0.187 |
| CGCGATCC | -0.111 |
| ATACGGAA | 0.107 |
| AATCTCAA | 0.0715 |
| TACGAGAA | -0.0157 |
| CCTTGGTC | -0.212 |
| AAGTAATC | 0.116 |
| ATAAAATC | 0.3 |
| ATGGAGGA | 0.0734 |
| AACATCTG | 0.0475 |
| CTATGCTA | 0.2 |

Block 4
Target: CCNB3, cyclin fold, Cln2 fusion (human)
Method: yeast growth competition, sequencing
Matrix: yeast
Setting: weak parent motif
Baseline: not given
Reading: higher = stronger binding
Starting sequence: RBL1 docking peptide (human); GSAKRRLFGEDPP; partner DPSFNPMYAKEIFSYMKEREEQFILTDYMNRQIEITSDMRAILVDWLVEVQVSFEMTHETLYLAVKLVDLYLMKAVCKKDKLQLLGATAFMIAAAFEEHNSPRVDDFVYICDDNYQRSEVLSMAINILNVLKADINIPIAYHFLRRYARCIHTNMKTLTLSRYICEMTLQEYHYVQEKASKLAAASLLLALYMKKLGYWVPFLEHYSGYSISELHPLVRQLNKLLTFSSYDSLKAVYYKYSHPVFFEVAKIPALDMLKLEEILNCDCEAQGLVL
| Variant | normalised enrichment score |
| --- | --- |
| GSAKPRLFGEDPP [R5P] | 0.67 |
| GSAKRRAFGEDPP [L7A] | 0.196 |
| GNAKRRLFGEDPP [S2N] | 0.435 |
| GSAWRRLFGEDPP [K4W] | 0.464 |
| GSAKRRLFGGDPP [E10G] | 0.201 |
| GSAQRRLFGEDPP [K4Q] | 0.0132 |
| GSAKRRLFGCDPP [E10C] | 0.625 |
| HSAKRRLFGEDPP [G1H] | 0.744 |
| GSAKRRLFGEDRP [P12R] | 0.407 |
| ASAKRRLFGEDPP [G1A] | 1.03 |
| GSAKRREFGEDPP [L7E] | -0.149 |
| GSAKTRLFGEDPP [R5T] | -0.0844 |
| GSAKRRLFGEDPH [P13H] | 1.08 |
| SSAKRRLFGEDPP [G1S] | 0.356 |
| GSAKRALFGEDPP [R6A] | 0.222 |
| GSAKRRLFSEDPP [G9S] | 1.09 |
| GSAERRLFGEDPP [K4E] | 0.192 |
| GFAKRRLFGEDPP [S2F] | 0.501 |

Block 5
Target: Prothrombin, mature alpha-thrombin (F2, Homo sapiens, UniProt P00734)
Method: aptamer microarray, sandwich
Molecule type: DNA with 2'F-ANA
Matrix: in vitro
Concentration: 200 nM
Setting: whole 15-mer aptamer, many near background
With: Cy3 exosite-II aptamer, 400 nM
Reading: higher = stronger binding
Strand: GGTTGGTGTGGTTGG
| Modification | mean fluorescence intensity |
| --- | --- |
| 2'F-ANA at 3 4 6 10 11 12 13 | 243 a.u. |
| 2'F-ANA at 6 7 8 9 10 11 12 14 15 | 107 a.u. |
| 2'F-ANA at 2 3 4 6 9 10 11 13 14 15 | 136 a.u. |
| 2'F-ANA at 2 3 4 5 8 9 10 11 12 14 15 | 52.8 a.u. |
| 2'F-ANA at 2 3 6 7 8 11 12 13 14 15 | 381 a.u. |
| 2'F-ANA at 1 3 4 6 7 8 11 12 | 370 a.u. |
| 2'F-ANA at 1 2 4 5 6 7 9 10 11 14 | 86.5 a.u. |
| 2'F-ANA at 1 4 5 7 10 11 12 15 | 46.5 a.u. |
| 2'F-ANA at 3 4 6 7 10 12 13 | 259 a.u. |
| 2'F-ANA at 1 2 4 8 11 12 13 14 15 | 62.6 a.u. |
| 2'F-ANA at 2 3 4 7 8 9 11 12 13 14 | 296 a.u. |
| 2'F-ANA at 1 3 6 7 13 | 212 a.u. |
| 2'F-ANA at 1 3 4 5 8 10 11 12 13 15 | 48.9 a.u. |
| 2'F-ANA at 1 4 5 6 8 9 14 15 | 48.3 a.u. |
| 2'F-ANA at 4 8 9 12 13 | 411 a.u. |
| 2'F-ANA at 1 3 4 6 8 9 10 11 15 | 63 a.u. |
| 2'F-ANA at 1 2 3 4 5 9 10 11 15 | 51.1 a.u. |
| 2'F-ANA at 1 2 7 10 11 12 14 | 48.2 a.u. |
| 2'F-ANA at 1 5 6 8 11 | 54.5 a.u. |
| 2'F-ANA at 1 4 5 6 7 9 11 13 14 15 | 45.9 a.u. |
| 2'F-ANA at 5 7 9 11 12 13 14 | 49.4 a.u. |
| 2'F-ANA at 1 4 5 7 10 13 14 15 | 45.1 a.u. |
| 2'F-ANA at 1 3 4 6 8 11 12 13 14 | 81.5 a.u. |
| 2'F-ANA at 1 4 5 8 9 11 12 13 14 | 45.1 a.u. |
| 2'F-ANA at 1 3 4 6 10 12 13 14 15 | 53.9 a.u. |

Block 6
Target: ATP-dependent RNA helicase DDX3X, helicase core (DDX3X, Homo sapiens, UniProt O00571, residues 132-607)
Sequence of UniProt O00571 (132-607, looked up): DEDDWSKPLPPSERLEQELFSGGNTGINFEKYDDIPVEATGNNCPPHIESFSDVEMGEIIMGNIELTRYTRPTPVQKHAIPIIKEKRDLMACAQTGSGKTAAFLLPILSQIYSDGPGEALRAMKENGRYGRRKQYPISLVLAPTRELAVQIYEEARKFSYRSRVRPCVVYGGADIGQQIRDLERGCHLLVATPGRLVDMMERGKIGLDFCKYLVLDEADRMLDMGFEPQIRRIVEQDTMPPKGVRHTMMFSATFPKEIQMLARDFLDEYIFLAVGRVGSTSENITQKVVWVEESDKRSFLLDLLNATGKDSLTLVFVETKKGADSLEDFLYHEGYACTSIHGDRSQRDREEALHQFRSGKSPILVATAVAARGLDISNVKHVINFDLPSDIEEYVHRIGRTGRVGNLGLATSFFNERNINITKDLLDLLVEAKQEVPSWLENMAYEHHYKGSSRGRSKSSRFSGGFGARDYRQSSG
Method: RNA Bind-n-Seq
Molecule type: RNA
Matrix: in vitro
Concentration: 90 pmol
Setting: 4-mer, random 30-nt RNA, single round
With: 3 µM DMDA-PatA, 2 mM ADP, 2 mM phosphate
Baseline: input library
Reading: higher = stronger binding
| Strand | 4-mer enrichment [fold] |
| --- | --- |
| AACA | 1.01 |
| UACU | 0.792 |
| AGUU | 1.19 |
| UUCA | 0.989 |
| GAUG | 0.902 |
| ACCA | 1 |
| CAGC | 0.947 |
| AUCC | 0.916 |
| GCGA | 1.01 |
| AUUG | 0.926 |
| UGUC | 0.879 |
| GAGC | 1.01 |
| CUAA | 0.891 |
| AGAG | 1.24 |
| CGGG | 1.19 |
| CCAU | 0.929 |
| ACUC | 0.854 |
| GAUU | 0.868 |
| UUAC | 0.894 |
| UAAU | 0.999 |
| CCGU | 0.871 |
| GGGA | 1.24 |
| UUAU | 1.03 |
| GGUC | 0.869 |
| CAGG | 1.05 |

Repeated from above (block 6):
| Strand | 4-mer enrichment [fold] |
| --- | --- |
| UACU | 0.792 |
| AGUU | 1.19 |
| UUCA | 0.989 |
| GAUG | 0.902 |
| ACCA | 1 |
| CAGC | 0.947 |
| AUCC | 0.916 |
| GCGA | 1.01 |
| AUUG | 0.926 |
| UGUC | 0.879 |
| GAGC | 1.01 |
| CUAA | 0.891 |
| AGAG | 1.24 |
| CGGG | 1.19 |
| CCAU | 0.929 |
| ACUC | 0.854 |
| GAUU | 0.868 |
| UUAC | 0.894 |
| UAAU | 0.999 |
| CCGU | 0.871 |
